# Measured values collected from several papers.
# Protocols differ between the studies behind these lines.
# Method: steady-state kinetics
# B1: LYS1 C205S/H96Q/K77M (Saccharomyces cerevisiae, UniProt P38998); chain MAAVTLHLRAETKPLEARAALTPTTVKKLIAKGFKIYVEDSPQSTFNINEYRQAGAIIVPAGSWKTAPRDRIIIGLMEMPETDTFPLVHEHIQFAQCYKDQAGWQNVLMRFIKGHGTLYDLEFLENDQGRRVAAFGFYAGFAGAALGVRDWAFKQTHSDDEDLPAVSPYPNEKALVKDVTKDYKEALATGARKPTVLIIGALGRSGSGAIDLLHKVGIPDANILKWDIKETSRGGPFDEIPQADIFINCIYLSKPIAPFTNMEKLNNPNRRLRTVVDVSADTTNPHNPIPIYTVATVFNKPTVLVPTTAGPKLSVISIDHLPSLLPREASEFFSHDLLPSLELLPQRKTAPVWVRAKKLFDRHCARVKRSSRL
# B2: enzyme F206A/H226Y (Oryctolagus cuniculus, UniProt P00178); chain GRLPPGPSPLPVLGNLLQMDRKGLLRSFLRLREKYGDVFTVYLGSRPVVVLCGTDAIREALVDQAEAFSGRGKIAVVDPIFQGYGVIFANGERWRALRRFSLATMRDFGMGKRSVEERIQEEARCLVEELRKSKGALLDNTLLFHSITSNIICSIVFGKRFDYKDPVFLRLLDLFFQSASLISSFSSQVFELFPGFLKYFPGTHRQIYRNLQEINTFIGQSVEKHRATLDPSNPRDFIDVYLLRMEKDKSDPSSEFHHQNLILTVLSLFFAGTETTSTTLRYGFLLMLKYPHVTERVQKEIEQVIGSHRPPALDDRAKMPYTDAVIHEIQRLGDLIPFGVPHTVTKDTQFRGYVIPKNTEVFPVLSSALHDPRYFETPNTFNPGHFLDANGALKRNEGFMPFSLGKRICLGEGIARTELFLFFTTILQNFSIASPVPPEDIDLTPRESGVGNVPPSYQIRFLAR
# B3: ispG (Escherichia coli, UniProt P62620); chain MHNQAPIQRRKSTRIYVGNVPIGDGAPIAVQSMTNTRTTDVEATVNQIKALERVGADIVRVSVPTMDAAEAFKLIKQQVNVPLVADIHFDYRIALKVAEYGVDCLRINPGNIGNEERIRMVVDCARDKNIPIRIGVNAGSLEKDLQEKYGEPTPQALLESAMRHVDHLDRLNFDQFKVSVKASDVFLAVESYRLLAKQIDQPLHLGITEAGGARSGAVKSAIGLGLLLSEGIGDTLRVSLAADPVEEIKVGFDILKSLRIRSRGINFIACPTCSRQEFDVIGTVNALEQRLEDIITPMDVSIIGCVVNGPGEALVSTLGVTGGNKKSGLYEDGVRKDRLDNNDMIDQLEARIRAKASQLDEARRIDVQQVEK
# B4: enzyme (Arabidopsis thaliana, UniProt Q9FFF6); chain MNKNKIDVKIETKKGSMDEWPEPIVRVQSLAESNLSSLPDRYIKPASLRPTTTEDAPTATNIPIIDLEGLFSEEGLSDDVIMARISEACRGWGFFQVVNHGVKPELMDAARENWREFFHMPVNAKETYSNSPRTYEGYGSRLGVEKGASLDWSDYYFLHLLPHHLKDFNKWPSFPPTIREVIDEYGEELVKLSGRIMRVLSTNLGLKEDKFQEAFGGENIGACLRVNYYPKCPRPELALGLSPHSDPGGMTILLPDDQVFGLQVRKDDTWITVKPHPHAFIVNIGDQIQILSNSTYKSVEHRVIVNSDKERVSLAFFYNPKSDIPIQPLQELVSTHNPPLYPPMTFDQYRLFIRTQGPQGKSHVESHISPR
# B5: CYP4F3 A27G/C46R/I34V/M14V/R49Q/W12G (Homo sapiens, UniProt Q08477); chain MALLLAVFLLGPVAASPWLLLLLVGGSWLLARVLAWTYTFYDNCRRLQCFPQPPKRNWFLGHLGLVTPTEQGMRVLTQLVATYPQGFKVWMGPIFPVIRFCHPNIIRSVINASAAIVPKDKVFYSFLKPWLGDGLLLSAGEKWSRHRRMLTPAFHFNILKPYMKIFNESVNIMHAKWQLLASEGSARLDMFEHISLMTLDSLQKCVFSFDSHCQEKPSEYIAAILELSALVTKRHQQILLYIDFLYYLTPDGQRFRRACRLVHDFTDAVIQERRRTLPSQGVDDFLQAKAKSKTLDFIDVLLLSKDEDGKKLSDEDIRAEADTFMFEGHDTTASGLSWVLYHLAKHPEYQERCRQEVQELLKDREPKEIEWDDLAQLPFLTMCIKESLRLHPPVPAVSRCCTQDIVLPDGRVIPKGIICLISVFGTHHNPAVWPDPEVYDPFRFDPKNIKERSPLAFIPFSAGPRNCIGQAFAMAEMKVVLGLTLLRFRVLPDHTEPRRKPELVLRAEGGLWLRVEPLS
# B6: UGT76G1 (Stevia rebaudiana, UniProt Q6VAB4); chain MENKTETTVRRRRRIILFPVPFQGHINPILQLANVLYSKGFSITIFHTNFNKPKTSNYPHFTFRFILDNDPQDERISNLPTHGPLAGMRIPIINEHGADELRRELELLMLASEEDEEVSCLITDALWYFAQSVADSLNLRRLVLMTSSLFNFHAHVSLPQFDELGYLDPDDKTRLEEQASGFPMLKVKDIKSAYSNWQILKEILGKMIKQTKASSGVIWNSFKELEESELETVIREIPAPSFLIPLPKHLTASSSSLLDHDRTVFQWLDQQPPSSVLYVSFGSTSEVDEKDFLEIARGLVDSKQSFLWVVRPGFVKGSTWVEPLPDGFLGERGRIVKWVPQQEVLAHGAIGAFWTHSGWNSTLESVCEGVPMIFSDFGLDQPLNARYMSDVLKVGVYLENGWERGEIANAIRRVMVDEEGEYIRQNARVLKQKADVSLMKGGSSYESLESLVSYISSL
# B7: Por W677A (Rattus norvegicus, UniProt P00388); chain GDSHEDTSATMPEAVAEEVSLFSTTDMVLFSLIVGVLTYWFIFRKKKEEIPEFSKIQTTAPPVKESSFVEKMKKTGRNIIVFYGSQTGTAEEFANRLSKDAHRYGMRGMSADPEEYDLADLSSLPEIDKSLVVFCMATYGEGDPTDNAQDFYDWLQETDVDLTGVKFAVFGLGNKTYEHFNAMGKYVDQRLEQLGAQRIFELGLGDDDGNLEEDFITWREQFWPAVCEFFGVEATGEESSIRQYELVVHEDMDVAKVYTGEMGRLKSYENQKPPFDAKNPFLAAVTANRKLNQGTERHLMHLELDISDSKIRYESGDHVAVYPANDSALVNQIGEILGADLDVIMSLNNLDEESNKKHPFPCPTTYRTALTYYLDITNPPRTNVLYELAQYASEPSEQEHLHKMASSSGEGKELYLSWVVEARRHILAILQDYPSLRPPIDHLCELLPRLQARYYSIASSSKVHPNSVHICAVAVEYEAKSGRVNKGVATSWLRAKEPAGENGGRALVPMFVRKSQFRLPFKSTTPVIMVGPGTGIAPFMGFIQERAWLREQGKEVGETLLYYGCRRSDEDYLYREELARFHKDGALTQLNVAFSREQAHKVYVQHLLKRDREHLWKLIHEGGAHIYVCGDARNMAKDVQNTFYDIVAEFGPMEHTQAVDYVKKLMTKGRYSLDVAS
# B8: PRAG1 (Homo sapiens, UniProt Q86YV5); chain GSTQLQLHGLLSNISSKEGTYAKLGGLYTQSLARLVAKCEDLFMGGQKKELHFNENNWSLFKLTCNKPCCDSGDAIYYCATCSEDPGSTYAVKICKAPEPKTVSYCSPSVPVHFNIQQDCGHFVASVPSSMLSSPDAPKDPVPALPTHPPAQEQDCVVVITREVPHQTASDFVRDSAASHQAEPEAYERRVCFLLLQLCNGLEHLKEHGIIHRDLCLENLLLVHCTLQAGPGPAPAPAPAPAPAAAAPPCSSAAPPAGGTLSPAAGPASPEGPREKQLPRLIISNFLKAKQKPGGTPNLQQKKSQARLAPEIVSASQYRKFDEFQTGILIYELLHQPNPFEVRAQLRERDYRQEDLPPLPALSLYSPGLQQLAHLLLEADPIKRIRIGEAKRVLQCLLWGPRRELVQQPGTSEEALCGTLHNWIDMKRALMMMKFAEKAVDRRRGVELEDWLCCQYLASAEPGALLQSLKLLQLL
# UniProt P09546, sequence (whole entry, looked up): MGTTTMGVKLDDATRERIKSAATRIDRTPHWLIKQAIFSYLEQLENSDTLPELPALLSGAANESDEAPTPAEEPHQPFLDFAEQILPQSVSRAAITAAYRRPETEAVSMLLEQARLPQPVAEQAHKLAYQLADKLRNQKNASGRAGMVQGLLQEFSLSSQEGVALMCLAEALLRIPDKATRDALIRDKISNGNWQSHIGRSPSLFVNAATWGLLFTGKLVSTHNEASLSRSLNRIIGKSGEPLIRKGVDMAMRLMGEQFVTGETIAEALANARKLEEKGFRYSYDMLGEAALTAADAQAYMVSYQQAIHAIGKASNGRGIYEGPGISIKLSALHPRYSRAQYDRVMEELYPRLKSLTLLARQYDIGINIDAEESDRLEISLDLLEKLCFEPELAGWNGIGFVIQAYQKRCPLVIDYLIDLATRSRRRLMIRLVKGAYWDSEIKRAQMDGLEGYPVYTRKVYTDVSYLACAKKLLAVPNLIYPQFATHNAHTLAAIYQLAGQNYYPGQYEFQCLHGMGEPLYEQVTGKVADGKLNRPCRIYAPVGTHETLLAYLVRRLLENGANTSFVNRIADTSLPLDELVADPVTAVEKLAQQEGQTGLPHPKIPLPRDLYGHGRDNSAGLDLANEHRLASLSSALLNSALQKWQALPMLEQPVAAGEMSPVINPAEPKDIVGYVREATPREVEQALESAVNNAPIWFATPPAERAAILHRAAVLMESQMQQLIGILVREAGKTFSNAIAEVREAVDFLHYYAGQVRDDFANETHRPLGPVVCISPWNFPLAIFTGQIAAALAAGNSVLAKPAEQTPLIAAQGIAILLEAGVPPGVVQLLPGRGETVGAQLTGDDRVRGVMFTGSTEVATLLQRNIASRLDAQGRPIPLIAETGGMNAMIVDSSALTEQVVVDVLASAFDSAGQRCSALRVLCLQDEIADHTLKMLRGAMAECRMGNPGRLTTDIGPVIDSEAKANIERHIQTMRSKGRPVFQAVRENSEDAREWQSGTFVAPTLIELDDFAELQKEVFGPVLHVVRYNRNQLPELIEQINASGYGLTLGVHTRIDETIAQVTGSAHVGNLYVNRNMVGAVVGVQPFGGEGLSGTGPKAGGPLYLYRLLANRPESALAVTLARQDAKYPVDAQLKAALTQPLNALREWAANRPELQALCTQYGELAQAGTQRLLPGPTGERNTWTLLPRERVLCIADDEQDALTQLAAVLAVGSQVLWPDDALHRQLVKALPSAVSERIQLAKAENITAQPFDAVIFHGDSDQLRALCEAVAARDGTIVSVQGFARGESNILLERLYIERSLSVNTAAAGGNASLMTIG
# UniProt H2K887, sequence (whole entry, looked up): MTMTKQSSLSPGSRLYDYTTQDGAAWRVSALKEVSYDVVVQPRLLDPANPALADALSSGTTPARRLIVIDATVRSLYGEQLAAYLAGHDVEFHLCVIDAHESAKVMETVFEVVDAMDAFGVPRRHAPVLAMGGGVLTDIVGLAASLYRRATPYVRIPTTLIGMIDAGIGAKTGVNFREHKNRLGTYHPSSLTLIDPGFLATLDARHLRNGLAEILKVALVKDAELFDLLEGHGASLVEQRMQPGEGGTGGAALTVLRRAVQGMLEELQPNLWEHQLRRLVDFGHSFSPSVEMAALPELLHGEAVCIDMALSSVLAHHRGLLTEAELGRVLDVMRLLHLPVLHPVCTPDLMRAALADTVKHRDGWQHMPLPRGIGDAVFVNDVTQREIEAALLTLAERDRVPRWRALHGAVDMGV
# UniProt P52961, sequence (whole entry, looked up): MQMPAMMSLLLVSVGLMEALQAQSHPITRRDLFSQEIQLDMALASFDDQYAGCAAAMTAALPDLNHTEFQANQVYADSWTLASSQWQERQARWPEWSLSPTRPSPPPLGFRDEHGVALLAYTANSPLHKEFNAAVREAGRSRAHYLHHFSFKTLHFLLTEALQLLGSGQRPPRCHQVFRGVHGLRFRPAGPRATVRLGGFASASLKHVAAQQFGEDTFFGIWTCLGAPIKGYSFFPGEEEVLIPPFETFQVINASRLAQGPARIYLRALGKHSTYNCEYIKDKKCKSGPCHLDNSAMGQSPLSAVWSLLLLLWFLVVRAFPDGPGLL
# UniProt Q75I93, sequence (whole entry, looked up): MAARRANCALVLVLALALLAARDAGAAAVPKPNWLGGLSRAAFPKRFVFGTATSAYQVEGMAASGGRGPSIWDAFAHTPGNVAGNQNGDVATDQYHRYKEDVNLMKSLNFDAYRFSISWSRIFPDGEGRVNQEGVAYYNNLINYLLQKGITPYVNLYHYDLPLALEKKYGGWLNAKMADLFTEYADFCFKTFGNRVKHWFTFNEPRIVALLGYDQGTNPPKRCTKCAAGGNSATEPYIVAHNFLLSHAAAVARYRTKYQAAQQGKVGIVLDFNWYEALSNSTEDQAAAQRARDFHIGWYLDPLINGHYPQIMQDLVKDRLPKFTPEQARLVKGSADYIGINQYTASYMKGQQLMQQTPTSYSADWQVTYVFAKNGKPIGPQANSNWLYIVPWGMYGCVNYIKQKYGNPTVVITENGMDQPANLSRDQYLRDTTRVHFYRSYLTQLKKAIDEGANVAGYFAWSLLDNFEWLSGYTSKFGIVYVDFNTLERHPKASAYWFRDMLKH
Molecule,substrate,conditions,Km
B1 (LYS1 C205S/H96Q/K77M),NCCCC[C@H](N)C(=O)O,"pH 7, 25 °C, together with: NADH 0.5 mM",96000 µM
B2 (enzyme F206A/H226Y),CCOc1ccc2c(C(F)(F)F)cc(=O)oc2c1,"37 °C, together with: 7-EFC",58.5 µM
"ART1 (Homo sapiens, UniProt P52961)",COC(=O)[C@H](CCCNC(=N)N)NC(C)=O,"pH 7.5, 25 °C, HEPES 50 mM, together with: saturating NAD+",900 µM
B3 (ispG),C[C@@]1(CO)OP(=O)(O)OP(=O)(O)OC[C@H]1O,,311 µM
"enzyme (Acinetobacter baumannii, UniProt A0A5P1UDB1)",O=C(O)c1ccccc1O,"pH 7.5, 37 °C, apparent",71.9 µM
B4 (enzyme),CC/C=C\C[C@@H]1C(=O)CC[C@@H]1CC(=O)O,"pH 7.5, 20 °C",1.14 µM
"valA (Streptomyces hygroscopicus, UniProt H2K887)",O=C(CO)[C@@H](O)[C@H](O)[C@H](O)[C@H](O)COP(=O)(O)O,"pH 7.5, 28 °C",49 µM
B5,CCCCC/C=C\C/C=C\C/C=C\C/C=C\CCCC(=O)O,"pH 7.4, together with: arachidonic acid",29 µM
B6 (UGT76G1),C=C1C[C@@]23CC[C@H]4[C@@](C)(CCC[C@@]4(C)C(=O)O[C@@H]4O[C@H](CO)[C@@H](O)[C@H](O)[C@H]4O)[C@@H]2CC[C@]1(O[C@@H]1O[C@H](CO)[C@@H](O)[C@H](O)[C@H]1O)C3,"pH 7.25, 40 °C",123 µM
acsA D449E (Pseudomonas chlororaphis),C#CCCC(=O)O,pH 7,500 µM
"BGLU7 (Oryza sativa, UniProt Q75I93)",O=[N+]([O-])c1ccc(O[C@@H]2O[C@H](CO)[C@@H](O)[C@H](O)[C@H]2O)cc1,"pH 6, 30 °C, not purified",6470 µM
B7 (Por W677A),NC(=O)C1=CN([C@@H]2O[C@H](COP(=O)(O)OP(=O)(O)OC[C@H]3O[C@@H](n4cnc5c(N)ncnc54)[C@H](O)[C@@H]3O)[C@@H](O)[C@H]2O)C=CC1,together with: cytochrome c,83.5 µM
B8 (PRAG1),Nc1ncnc2c1ncn2[C@@H]1O[C@H](COP(=O)(O)OP(=O)(O)OP(=O)(O)O)[C@@H](O)[C@H]1O,,57 µM
"enzyme (Salvia miltiorrhiza, UniProt A0A0B4VRM0)",O=C(/C=C/c1ccc(O)cc1)O[C@H](Cc1ccc(O)c(O)c1)C(=O)O,"pH 7.5, 30 °C, not purified",678 µM
"putA (Escherichia coli, UniProt P09546)",COC1=C(OC)C(=O)C(CC=C(C)C)=C(C)C1=O,"pH 7.4, 20 °C, together with: proline 200 mM",110 µM

# Some of these lines once more:
Molecule,substrate,conditions,Km
B3 (ispG),C[C@@]1(CO)OP(=O)(O)OP(=O)(O)OC[C@H]1O,,311 µM
"enzyme (Salvia miltiorrhiza, UniProt A0A0B4VRM0)",O=C(/C=C/c1ccc(O)cc1)O[C@H](Cc1ccc(O)c(O)c1)C(=O)O,"pH 7.5, 30 °C, not purified",678 µM
